Published values collected from several papers.
Each line is one published result; not all experiments were run side by side. “And” joins repeats or separate records; there may be more than shown. ± marks the error that the study gave.
Chain of UniProt Q04912 (whole entry, looked up): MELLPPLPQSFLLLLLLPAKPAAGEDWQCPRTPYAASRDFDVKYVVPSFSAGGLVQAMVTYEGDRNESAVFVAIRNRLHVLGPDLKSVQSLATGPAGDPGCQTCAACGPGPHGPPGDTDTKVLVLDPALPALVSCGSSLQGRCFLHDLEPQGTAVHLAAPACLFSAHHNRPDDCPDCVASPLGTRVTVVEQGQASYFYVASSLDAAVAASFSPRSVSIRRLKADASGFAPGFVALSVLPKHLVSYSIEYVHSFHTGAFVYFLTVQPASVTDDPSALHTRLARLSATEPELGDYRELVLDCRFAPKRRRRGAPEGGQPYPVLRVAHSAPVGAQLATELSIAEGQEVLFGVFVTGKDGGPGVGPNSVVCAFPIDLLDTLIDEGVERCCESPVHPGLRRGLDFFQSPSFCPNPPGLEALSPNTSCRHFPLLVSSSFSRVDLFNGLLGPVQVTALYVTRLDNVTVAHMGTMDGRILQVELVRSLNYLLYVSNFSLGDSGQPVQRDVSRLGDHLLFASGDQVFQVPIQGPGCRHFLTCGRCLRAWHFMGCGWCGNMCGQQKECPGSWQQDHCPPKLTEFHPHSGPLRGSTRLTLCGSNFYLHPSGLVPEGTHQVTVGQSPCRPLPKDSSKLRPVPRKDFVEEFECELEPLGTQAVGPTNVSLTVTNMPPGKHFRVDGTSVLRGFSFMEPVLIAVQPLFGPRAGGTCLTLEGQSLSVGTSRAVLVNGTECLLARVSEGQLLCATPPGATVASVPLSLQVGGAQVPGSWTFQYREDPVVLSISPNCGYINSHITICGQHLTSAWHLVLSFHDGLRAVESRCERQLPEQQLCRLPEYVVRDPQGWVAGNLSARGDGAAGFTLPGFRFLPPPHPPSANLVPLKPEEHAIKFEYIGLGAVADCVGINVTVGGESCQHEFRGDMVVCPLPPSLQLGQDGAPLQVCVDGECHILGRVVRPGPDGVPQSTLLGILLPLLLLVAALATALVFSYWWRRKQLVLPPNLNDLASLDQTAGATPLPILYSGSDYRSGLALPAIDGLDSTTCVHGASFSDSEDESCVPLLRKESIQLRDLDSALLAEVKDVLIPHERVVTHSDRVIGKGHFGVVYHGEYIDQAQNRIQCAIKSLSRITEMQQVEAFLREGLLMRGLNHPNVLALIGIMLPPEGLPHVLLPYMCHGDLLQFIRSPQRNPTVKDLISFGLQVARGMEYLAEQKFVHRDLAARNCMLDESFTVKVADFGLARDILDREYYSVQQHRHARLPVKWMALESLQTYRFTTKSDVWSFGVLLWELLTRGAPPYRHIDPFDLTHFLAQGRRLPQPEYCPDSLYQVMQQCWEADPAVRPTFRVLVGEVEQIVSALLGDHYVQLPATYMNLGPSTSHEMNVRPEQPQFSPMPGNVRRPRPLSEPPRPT

CCC(C(=O)Nc1ccc(C(N)=O)c(F)c1)n1cc(OC)c(-c2cc(Cl)ccc2-n2cc(C(F)(F)F)nn2)cc1=O (stereo not shown) — subjects with moderate adverse event (male humans; oral, 50 mg, fasted): 7.1%
C=CC(=O)Nc1cccc(Cn2ncc3cnc(Nc4cnn(CCOC)c4)nc32)c1 — percent of control (RIOK1 human; binding, KINOMEscan; 100 nM; lower = stronger binding): 13%
CC[C@H](C)[C@H](NC(=O)[C@H](CCCCN)NC(=O)[C@H](CCC(=O)O)NC(=O)[C@H](CO)NC(=O)[C@H](Cc1ccccc1)NC(=O)[C@H](CC(C)C)NC(=O)[C@H](CCC(N)=O)NC(=O)[C@H](CO)NC(=O)[C@H](C)NC(=O)[C@H](CCCCN)NC(=O)[C@H](Cc1c[nH]cn1)NC(=O)[C@H](Cc1c[nH]c2ccccc12)NC(=O)[C@H](CCC(N)=O)NC(=O)[C@H](CCCCN)NC(=O)[C@H](CCCCN)NC(=O)[C@H](CC(C)C)NC(=O)CNC(=O)[C@H](C)NC(=O)[C@@H](NC(=O)[C@H](CO)NC(=O)[C@@H](N)CCSC)C(C)C)C(=O)N[C@@H](CO)C(=O)NCC(=O)N[C@@H](C)C(N)=O — m value (circular dichroism; aqueous TFE; 50 µM, pH 7.4, 20 °C): 2.55 ± 0.5 kcal/mol/M
O=C1NC2(CC2)COc2ncc(F)cc2[C@H]2COCCN2c2ccn3ncc1c3n2 — relative population doubling (CHL; chromosomal aberration test; 75 µg/mL, 4 h, with rat liver S9; baseline: solvent control): 81.6%
CNS(=O)(=O)Nc1nccc(Cc2c(C)c3ccc(Oc4ncccc4F)cc3oc2=O)c1F — IC50 (NCI-H69; cell viability; 7 days): > 1 µM
Cc1nn(-c2cccc(N)c2)c(=O)c2cnc(Nc3ccc(N4CCNCC4)cc3)nc12 — IC50 (Macrophage-stimulating protein receptor (MST1R, Homo sapiens, UniProt Q04912); enzyme activity, inhibitor): 3.65 µM
CCC(=O)N(C)c1ccc(Cl)c(Cl)c1 — plasma concentration (LC-MS/MS; mouse C57BL/6 female, plasma; oral, 10 mg/kg, 1 h): 61.4 ng/mL and 57.4 ng/mL
C=C(NC(=O)c1csc(-c2nc3c(cc2O)-c2nc(cs2)C(=O)NC(C(C)O)C(=O)NC(=C(C)OC)c2nc(cs2)C(=O)NC2c4nc(cs4)C(=O)NC(COC(=O)c4c5c6c(cccc6n4O)COC(=O)C(OC4CC(C)(O)C(N(C)C)C(C)O4)C2OC5)c2nc-3cs2)n1)C(N)=O (stereo not shown) — AUC(0-last) (cynomolgus monkey, male, plasma; intravenous infusion, 3 mg/kg, multiple doses, day 7): 21500 ng·h/mL
CCCCC/C=C\CCCO[Si](CCCCN(C)CCO)(OCCC/C=C\CCCCC)OCCC/C=C\CCCCC — zeta potential (pH 7.5, formulated): 0.03 mV
C/C(N)=N/C(=N\S(=O)(=O)c1ccc(C(F)(F)F)cc1)N1C[C@H](c2ccccc2)C(c2ccc(Cl)cc2)=N1 — Tmax (C57BL/6 mouse, liver; intravenous, 10 mg/kg): 12 min
COc1cccc(OC)c1-c1cc(C(=O)NC2(C(=O)O)C3CC4CC(C3)CC2C4)nn1-c1ccc(C(=O)N(C)CCCN(C)CCCN(C)C(=O)[C@H](CCCCNC(=O)[C@H](CC(C)C)NC(=O)C2OC2C(=O)O)NC(=O)CN2CCN(CC(=O)[O-])CCN(CC(=O)[O-])CCN(CC(=O)[O-])CC2)cc1C(C)C.[177Lu+3] (mixture of isomers) — tumour-to-small intestine ratio (mouse HT-29 xenograft; 24 h, biodistribution; baseline: tumour over small intestine): 16.4
Cc1ncsc1-c1ccc(C(C)NC(=O)C2CC(O)CN2C(=O)C(NC(=O)CCCCCCCCCCN2CCCC(Nc3ncc(Cl)c(Nc4ccccc4S(=O)(=O)C(C)C)n3)C2)C(C)(C)C)cc1 (stereo not shown) — log2 fold change (22Rv1; RNA-seq, measured: WDCP mRNA; concentration not given; baseline: DMSO): -1.31
C=CC[C@@H]1/C=C(\C)C[C@H](C)C[C@H](OC)[C@H]2O[C@@](O)(C(=O)C(=O)N3CCCC[C@H]3C(=O)O[C@H](/C(C)=C/[C@@H]3CC[C@@H](O)[C@H](OC)C3)[C@H](C)[C@@H](O)CC1=O)[C@H](C)C[C@@H]2OC — AUC(0-24h) (LC-MS/MS; rat, whole blood; intraperitoneal, 0.5 mg/kg single dose): 438 ± 20 ng·h/mL
CN(O)C(=O)CCC(=O)NCCCN(CCCCN(CCCNC(=O)CCC(=O)N(C)O)C(=O)CCC(=O)N(C)O)C(=O)CCC(=O)N(C)O.[89Zr] — intact complex (radio-TLC; aqueous buffer; 1 d, pH 7.2, 37 °C, 89Zr-labelled complex, together with: CoCl2 10-fold excess): 97.7 ± 1.4%
O=C(c1ccccc1)N1C(c2ccc(OCC3CCN(CCCF)C3)cc2)c2ccc(O)cc2CC12CC2 (stereo not shown) — AUC extrapolated (C57BL/6J mice, plasma; intraperitoneal, 25 mg/kg): 0.345%
CC[C@H](C)[C@@H]1NC(=O)[C@H](Cc2ccc(O)cc2)NC(=O)CCCSC[C@@H](C(=O)N(CC(=O)N[C@@H](CC(C)C)C(=O)NCC(N)=O)Cc2ccc(F)cc2)NC(=O)[C@H](CC(N)=O)NC(=O)[C@H](CCC(N)=O)NC1=O — subjects with any TEAE (human; intranasal, 100 µg single dose): 17%
COC1CN([C@H]2CC[C@H]([C@@]3(C)Oc4c(Cl)cc(C(=O)NCc5c(SC)cc(C)[nH]c5=O)c(C)c4O3)CC2)C1 — log2 fold change (RNA-seq, measured: WNK2 mouse homolog; mouse, HT-1376 xenograft, whole blood; dose not given; baseline: vehicle): 0.408
CC(C)C[C@@H]1NC(=O)[C@H](C(C)C)NC(=O)[C@H](Cc2c[nH]c3ccccc23)NC(=O)[C@@H]2CSSC[C@H](NC(=O)[C@H](Cc3ccc(O)cc3)NC(=O)[C@H](C(C)C)NC(=O)[C@H](CCCNC(=N)N)NC(=O)CNC(=O)[C@H]3CCCN3C1=O)C(=O)N[C@@H](CCC(N)=O)C(=O)N1CCC[C@H]1C(=O)NCC(=O)N[C@@H](Cc1c[nH]c3ccccc13)C(=O)N2 — Papp B→A (Caco-2): 10.5 ×10⁻⁶ cm/s
O=C(Nc1ccc(OC(F)(F)F)cc1)NC1CCN(C(=O)C2CC2)CC1 — AUC (Sprague-Dawley rat, male, whole blood; oral, 0.1 mg/kg): 6.48 µM·h
